Measured values from different studies.
Each numbered part is a random draw from the data of one study; scales do not carry over between parts.

Block 1
Target: Histone acetyltransferase KAT6A, both winged helices, GST fusion (KAT6A, Homo sapiens, UniProt Q92794, residues 1-181)
Technique: protein binding microarray
Form: double-stranded DNA, one strand shown
Medium: in vitro
Tested at: not given
Notes: 8-mer, flanks averaged, mean of 2 arrays, mostly near background
Relative to: not given
Reading: higher = stronger binding
Target sequence (chain): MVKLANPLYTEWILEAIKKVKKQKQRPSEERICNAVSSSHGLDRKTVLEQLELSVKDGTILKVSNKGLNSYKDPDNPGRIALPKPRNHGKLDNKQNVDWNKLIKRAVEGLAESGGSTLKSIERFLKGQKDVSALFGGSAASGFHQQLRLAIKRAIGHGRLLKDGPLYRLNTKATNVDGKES
Oligonucleotide	E-score
GCCGGTCC	0.271
AGGGGTGC	-0.115
GACAATGA	-0.163
ATGGGAAG	-0.0601
CAGTCCGG	0.0965
GGGTTACC	0.137
AACGCCAT	0.0285
AAACGCCC	0.0671
ACTCCCTA	-0.133
ATGATGCG	0.209
CTAGCCTC	-0.207
AGATAACT	-0.108
GGTGGTCA	-0.0165
ACACAGGT	-0.138
CATTTGCG	0.119
AGGTACCT	-0.285

Block 2
Target: RING finger protein unkempt homolog, zinc fingers 1-6, GST-SBP tag (UNK, Homo sapiens, UniProt Q9C0B0, residues 30-357)
Technique: RNA Bind-n-Seq
Form: RNA
Medium: in vitro
Tested at: not given
Notes: RNA with constant flanks, human and mouse sites, ends assumed
Relative to: input RNA pool
Reading: higher = stronger binding
Construct (chain): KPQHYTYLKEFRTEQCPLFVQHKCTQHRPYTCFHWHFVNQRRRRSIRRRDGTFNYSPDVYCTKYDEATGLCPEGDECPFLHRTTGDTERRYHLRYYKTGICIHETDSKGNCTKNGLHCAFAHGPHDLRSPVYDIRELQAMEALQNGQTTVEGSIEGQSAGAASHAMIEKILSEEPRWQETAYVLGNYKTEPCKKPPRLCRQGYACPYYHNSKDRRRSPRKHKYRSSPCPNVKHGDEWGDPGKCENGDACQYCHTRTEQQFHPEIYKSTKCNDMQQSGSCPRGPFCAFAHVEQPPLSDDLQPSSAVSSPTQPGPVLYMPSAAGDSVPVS
Oligonucleotide	bound/input enrichment
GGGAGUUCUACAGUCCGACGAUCCUUCUCUCCUUGCCCCCCGCCCUCAUGGGUCCUAGCCCUUCCCUGAGUGCGGGCUGAGGCCAGAGUCACCUUUUCUGUGGCUGGCUCUACCUUCCUGUCCCUGAGGUUAAACGGUGCCCACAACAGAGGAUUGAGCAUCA	0.159 ratio
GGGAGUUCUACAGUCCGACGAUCCUUCCUCUGCCCCCUAUUGAGAUUCCAGCUGUAUUCUCGGGGAACACCUCCCCCAAAGUGGCAGUUGUUAAUCCUCAGCCACAGCUAUGGUCUAAAACAUCAGUGAAGAAGGCCCCCCCACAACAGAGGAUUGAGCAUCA	0.402 ratio
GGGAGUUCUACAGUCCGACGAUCCUGGUCUUGGUGAACACACUUUUCUUUUUUUUUCUUUUUUCUUUUUUUUUUCCUUUUUUUUUUUUUUUUUUUUUACCCCAGACACCUCCUUUUUGUAGAAAGCCAAAUAAAAUAUAUACACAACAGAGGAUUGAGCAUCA	2.64 ratio
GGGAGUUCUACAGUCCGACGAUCCACUUUAAGCAGUAUGUUCCUAUCAUUGAAAAAGAAGCAAAGGAAUACUUUCAAAGUUGGGGAGAAAGCGGAGAAAGAAAUGUGUUUGAAGCACUGUCUGAGCUCAUAAUUUUGACAGCUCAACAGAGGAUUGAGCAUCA	0.109 ratio
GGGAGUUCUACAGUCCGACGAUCCCUCCUUUAUUAAUUUUCUUCCAAAGACAAGGGAAGGCCGGCGGACGACCUGUGGGCCCUUUAGUUACCAAGUCGCAGUGGUACGCGGAGGACCGAGACUAGGAACGGACCUUGACCUUUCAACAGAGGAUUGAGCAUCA	0.411 ratio
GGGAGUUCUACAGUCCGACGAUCUUAUGAUUAUUUCAGAGAUCGCGGAUUCAGGUGUGGCUCUAUGAGCAAGUGAAUAUGCGGAUAGAAGGCUGUAUCAUUGGUUUUGAUGAGUAUAUGAACCUUGUAUUAGAUGAUGCAGAACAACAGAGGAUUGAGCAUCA	0.647 ratio
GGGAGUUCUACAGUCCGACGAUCUUUCGGGGCUCUGCGGAACCUUCUCUGUACAGCGCCCCCUUUCUGUUGUGCUAUUGGUUGCAGCUGCCAUGCUCAGAAUGCGUUUUGAGAGCUGAAGCAAGGUGCUUGCAGUCACCUGAGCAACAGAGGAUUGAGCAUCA	0.0537 ratio
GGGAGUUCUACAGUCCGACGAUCAAUGCUGUCCUCAAUGCUGGCGCUGGAGAGGAUAACCUGGAAUUCCGCCUGCAUCUCCGGUAUGAGUUCCUGAUGCUGGGGAUCCAGCCAGUGAUUGAUAAACUCCGGCAACACGAGAAUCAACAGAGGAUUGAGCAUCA	0.0694 ratio
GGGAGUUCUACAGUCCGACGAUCUCUAUUCGAAACCCCAAAGCCCGAGCCGUAACGUUAAGGGUUAAACUUUCCAGUUUGAAUUUAGACAAUCAUGCCAAGAAAAAACUCAUUAAGCUUGUAGGAGAGCGGUACUGCAAGGCCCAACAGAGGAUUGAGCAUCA	0.535 ratio
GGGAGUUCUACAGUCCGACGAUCCAGCAGCCACAGCCACUGAUGUCACAACAGUUUGCACAGCCUCCGGGAGCUACCAAUAUGAUAGGUUACAUGGGGCAGACUGCCUACCAAUACCCUCCUCCUCCUCCCCCUCCUCCUCCUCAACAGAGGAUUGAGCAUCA	0.336 ratio
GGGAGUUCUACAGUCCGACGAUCUAAAUGUUCCCGCUGUGUCCCUGGAUAUGGAAUAAGCAGGUAUAAAAAAUAUUUUAAUUAUAGUUUUGUUAUAAAUAUAACUUAUGAGAAAAAAAUUUGAUAGGAAUAAUACUGUAUAUUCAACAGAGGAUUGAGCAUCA	6.4 ratio

Block 3
Target: Protein C-ets-1 (ETS1, Homo sapiens, UniProt P14921, residues 1-441, full length assumed)
UniProt P14921, sequence (whole entry, looked up): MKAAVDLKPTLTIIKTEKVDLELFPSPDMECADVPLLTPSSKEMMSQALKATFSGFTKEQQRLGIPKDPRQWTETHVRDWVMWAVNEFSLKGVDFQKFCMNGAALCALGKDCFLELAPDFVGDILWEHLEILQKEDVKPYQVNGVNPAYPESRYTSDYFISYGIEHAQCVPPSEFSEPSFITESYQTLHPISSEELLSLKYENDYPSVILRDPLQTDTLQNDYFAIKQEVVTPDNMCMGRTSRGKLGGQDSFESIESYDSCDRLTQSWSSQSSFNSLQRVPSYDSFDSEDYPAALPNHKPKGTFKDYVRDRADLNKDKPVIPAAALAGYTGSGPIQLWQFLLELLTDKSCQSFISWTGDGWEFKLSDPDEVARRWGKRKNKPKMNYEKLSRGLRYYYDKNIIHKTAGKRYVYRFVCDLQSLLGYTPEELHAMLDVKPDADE
Technique: protein-binding microarray
Form: double-stranded DNA, one strand shown
Medium: in vitro
Tested at: not given
Notes: k-mer, scored over probes, only values ≥0.25
Reading: higher = stronger binding
Oligonucleotide	E-score
GGATGTAA	0.424
TAAAGGAA	0.363
ACCGGTAA	0.339
GCACATCC	0.382
GTACCGGA	0.466
ACGCCGGA	0.395
CCAGATCC	0.268
GGAAGCTA	0.418
AGGAACCG	0.283
GAACATCC	0.435
CATCCTGA	0.401
GTTCCGCA	0.281
ATAGGAAA	0.352
ACTGCCGG	0.278
CCGGTTAA	0.34
CATCCGCC	0.479

Block 4
Target: Interferon regulatory factor 7, full length, phosphomimetic (IRF7, Homo sapiens, UniProt Q92985, residues 1-503, S471D/S472D/S475D/S476D/S477D/S483D/S484D/S487D)
Technique: protein-binding microarray
Form: double-stranded DNA, one strand shown
Medium: in vitro
Tested at: 2200 nM top
Notes: 60-bp whole probe
With: salmon DNA 0.4 mg/ml
Relative to: random background probes
Reading: higher = stronger binding
All sequences stand within: GCCTAGCAC … GTCTTGATTCGCTTGACGCTGCTG
Target sequence (chain): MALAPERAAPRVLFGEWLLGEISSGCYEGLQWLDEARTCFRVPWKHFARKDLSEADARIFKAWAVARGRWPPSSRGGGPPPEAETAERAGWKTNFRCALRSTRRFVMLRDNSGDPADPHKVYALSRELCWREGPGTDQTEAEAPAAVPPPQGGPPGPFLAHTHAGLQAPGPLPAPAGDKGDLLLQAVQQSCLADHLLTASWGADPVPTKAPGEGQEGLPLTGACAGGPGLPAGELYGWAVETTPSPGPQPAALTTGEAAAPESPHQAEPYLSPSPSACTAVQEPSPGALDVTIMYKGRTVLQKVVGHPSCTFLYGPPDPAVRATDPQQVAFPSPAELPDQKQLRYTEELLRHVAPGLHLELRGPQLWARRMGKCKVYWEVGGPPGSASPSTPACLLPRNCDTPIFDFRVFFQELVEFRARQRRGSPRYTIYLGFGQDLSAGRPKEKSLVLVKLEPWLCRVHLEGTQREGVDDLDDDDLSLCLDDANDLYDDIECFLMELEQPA
Oligonucleotide	fitted relative affinity [z-score]
TTAGATCTCAGACTGGATCAGTGCTAG	-0.0662
GACGGACTGCTTATCCTGATGTGCTAG	0.405
TTAGGACTGCTTATCCATTAGTGCTAG	0.127
TCATCATTCCAATTCTTACTGTGCTAG	1.85
GACGATTTCAGAATGGAGACGTGCTAG	0.356
TTAGGTTTCGGGACTGGCTTAGTGCTA	2.88
TTAGATTTCAGTATCAATTAGTGCTAG	0.565
TCAACTCTGTGCTTTCCTACTGTGCTA	1.73
GACGGTCACGGTTTCGGGACGTGCTAG	2.07
ATAGATCTCAGTCTCGATTAGTGCTAG	0.622
GACGGTTTCGACTTTTGGGACGTGCTA	5.36
TCACATTTATATCTTTGACTGTGCTAG	1.42
TCTTTTTATGCTTTCTTTAAGTGCTAG	1.74
ATAGGACTGGACACTGGGTTAGTGCTA	-0.597
TTAGATTTCAGTTCTGATTAGTGCTAG	1.33
GAAGGTTTCGGGTTTCGGGACGTGCTA	9.67
TTAGATCTCAGTATCCATTAGTGCTAG	0.534
TTTAAATTCTAATTAGAATTGTGCTAG	-0.641
TCAAGCCTAAGGTTTAGGACTGTGCTA	-1
GACGGTATCGACTTTCGGTACGTGCTA	3.92
TTAGATTTCAGTGCCGATTAGTGCTAG	0.175
TTTGCTCTGTGCATAGGTCTGTGCTAG	0.542
TTAGGTAGCCTTATCCTTTAGTGCTAG	0.0167
TTAGGTTTCCTACTGCTCTAGTGCTAG	1.34
GACGAAATGAGACTGGAGACGTGCTAG	-0.0994

Some of these lines once more (block 1):
Oligonucleotide	E-score
GGGTTACC	0.137
AGGTACCT	-0.285
ACACAGGT	-0.138
ATGGGAAG	-0.0601
GACAATGA	-0.163
CTAGCCTC	-0.207
AAACGCCC	0.0671
